Assay results gathered from unrelated publications.
Protocols differ between the studies behind these lines. “And” joins repeats or separate records; there may be more than shown. ± gives the spread as reported.

Structure (SMILES)	target	test	system	conditions	how to read	measurement	value
CNC[C@H](O)c1cccc(O)c1	ADRA1D (Homo sapiens, UniProt P25100)	calcium mobilization, agonist	COS-7, transiently expressing receptor	–	reference: 3 µM ionomycin	Emax	~10%
C[C@H]1CCN(c2nccc(-c3cnn4ncccc34)n2)C1	ABL1 (Homo sapiens, UniProt P00519, Q252H)	–	–	1 µM	reference: control	remaining binding	69%
C=CC(=O)N1CCC[C@@H](n2nc(-c3ccc(Oc4ccccc4)cc3)c3c(N)ncnc32)C1	EPHB3 (Homo sapiens, UniProt P54753)	–	–	0.1 µM	–	remaining activity	122%
Cc1cccc2c1ccc1cc(C(C)C)ccc12	Aryl hydrocarbon receptor (Danio rerio, UniProt Q9YGV3)	reporter gene, agonist, luciferase reporter	ZF-4	13.72 µM	reference: vehicle control	fold change	0.883
O=C(NCCCN1CCOCC1)c1ccc(Nc2nccc(-c3cc4ccccc4s3)n2)cc1	Protein kinase 6 (Plasmodium falciparum, UniProt Q8IDW1)	binding, KinaseSeeker split luciferase	–	–	–	ligand efficiency	0.28
COc1cccc(C(=O)C#Cc2ccc(F)c(F)c2)c1	mvfR (Pseudomonas aeruginosa, UniProt Q9I4X0)	receptor binding	–	concentration not given, 1.5 h, added: PQS at 1:1 ratio	reference: control	binding	88%
OC[C@H]1OC(O)[C@H](O)[C@@H](O)[C@@H]1O (stereo partly drawn)	Hexokinase-3 (HK3, Homo sapiens, UniProt P52790, R807A)	substrate inhibition	–	mutant R807A, partial substrate inhibition model, added: ATP 20 mM	–	V∞/Vmax ratio (b)	0.6 ± 0.01
Nc1nc(=O)n([C@@H]2O[C@H](CO)[C@@H](O)[C@H]2F)cc1-c1ccco1	Cytidine deaminase (CDA, Homo sapiens, UniProt P32320)	deamination, substrate, real-time fluorescence	–	pH 7.4, 37 °C	–	kcat	2.5 to 3.3 s⁻¹
Cc1cccc(N2CC(C(=O)O)CC2=O)c1 (stereo not drawn)	Huntingtin (HTT, Homo sapiens, UniProt P42858)	binding, affinity selection mass spectrometry	–	–	reference: other proteins in batch	log fold enrichment	-0.171
Cc1ncsc1-c1ccc(CNC(=O)[C@@H]2C[C@@H](O)CN2C(=O)[C@@H](NC(=O)C2(F)CC2)C(C)(C)C)c(OCCOCCOCCN2CCN(c3cc(-c4ccccc4O)nnc3N)CC2)c1	SMARCA2 (Homo sapiens, UniProt P51531)	ternary complex binding, AlphaLISA competition	HEK293 cell lysate	added: full-length VCB	reference: binary IC50 over ternary IC50	cooperativity factor alpha	4.6
C=CC(=O)N1CCC(COCC(=O)N2CCN(c3nc(-c4cnc(N)nc4C(F)F)nc(N4CCOC[C@@H]4C)n3)CC2)CC1	NUAK2 (Homo sapiens, UniProt Q9H093)	KINOMEscan	–	1 µM	reference: DMSO control	remaining binding	100%
[Cl-].[Na+]	GUK1 (Homo sapiens, UniProt Q16774)	enzyme activity, NADH-coupled	–	1.875 mM	–	reaction velocity	0.0129 µM/s and 0.0137 µM/s and -0.00441 µM/s
CCCCCCCCCCCCC/C=C/[C@@H](O)[C@H](CO)NC(=O)CCCCCCCCCCCCCCCCCCCCC	Protein SET (SET, Homo sapiens, UniProt Q01105)	lipid binding, GFP pull-down LC-MS/MS	A549 overexpressing GFP-tagged protein	ER-targeted construct	reference: eluate plus flow-through	lipid fraction bound	4.1%
O=S(=O)(O)C1CCNCC1	SLC6A6 (Homo sapiens, UniProt P31641, Y138A)	binding, microscale thermophoresis	–	488 nM, room temperature, added: 50 nM labelled protein	higher = more binding	normalised MST signal	0.00653
CN(CCCCCCNC(=O)COc1ccc(C2CCC(=O)NC2=O)cc1)Cc1cn(Cc2ccc(C(=O)NO)cc2)c2ccccc12.O=C(O)C(F)(F)F (stereo not drawn)	HDAC6 (Homo sapiens, UniProt Q9UBN7)	degrader, western blot	MM1.S	5 µM, 24 h	–	degradation	95%

A few entries again:
Structure (SMILES)	target	test	system	conditions	how to read	measurement	value
CCCCCCCCCCCCC/C=C/[C@@H](O)[C@H](CO)NC(=O)CCCCCCCCCCCCCCCCCCCCC	Protein SET (SET, Homo sapiens, UniProt Q01105)	lipid binding, GFP pull-down LC-MS/MS	A549 overexpressing GFP-tagged protein	ER-targeted construct	reference: eluate plus flow-through	lipid fraction bound	4.1%
[Cl-].[Na+]	GUK1 (Homo sapiens, UniProt Q16774)	enzyme activity, NADH-coupled	–	1.875 mM	–	reaction velocity	0.0129 µM/s and 0.0137 µM/s and -0.00441 µM/s
